Measured values of several laboratories.
Compare with care: the assays were run in different laboratories. ± gives the spread as reported.

For `C[C@@H]1NC(=O)[C@H](CCC(=O)O)NC(=O)CNC(=O)[C@H](CC(=O)O)NC(=O)CNC(=O)[C@H](CCCCNC(=O)CCCCCNC(=O)[C@H](CS)NC(=O)CCCCCNC(=O)CN2CCN(CC(=O)O)CCN(CC(=O)O)CCN(CC(=O)O)CC2)NC(=O)[C@@H](Cc2ccc(O)cc2)NC1=O` [gallium-68 labelled], “tumour to muscle ratio” read 2.75 ± 1 (male nude mice, CL1-5 xenograft; 10 min).
`N=C(N)NCCC[C@@H]1NC(=O)[C@H](CCCCNC(=O)CCOCCOCCOCCOCCNC(=O)CC[C@H](NC(=O)CCOCCOCCOCCOCCNC(=O)CC[C@H](NC(=O)CN2CCN(CC(=O)O)CCN(CC(=O)O)CCN(CC(=O)O)CC2)C(=O)NCCOCCOCCOCCOCCC(=O)N[C@@H](CCC(=O)NCCOCCOCCOCCOCCC(=O)NCCCC[C@@H]2NC(=O)[C@@H](Cc3ccccc3)NC(=O)[C@H](CC(=O)O)NC(=O)CNC(=O)[C@H](CCCNC(=N)N)NC2=O)C(=O)NCCOCCOCCOCCOCCC(=O)NCCCC[C@@H]2NC(=O)[C@@H](Cc3ccccc3)NC(=O)[C@H](CC(=O)O)NC(=O)CNC(=O)[C@H](CCCNC(=N)N)NC2=O)C(=O)NCCOCCOCCOCCOCCC(=O)NCCCC[C@@H]2NC(=O)[C@@H](Cc3ccccc3)NC(=O)[C@H](CC(=O)O)NC(=O)CNC(=O)[C@H](CCCNC(=N)N)NC2=O)NC(=O)[C@@H](Cc2ccccc2)NC(=O)[C@H](CC(=O)O)NC(=O)CNC1=O` [indium-111 labelled]: “tumour to tissue ratio” 46.4 ± 25.6 (athymic nude mice, female, U-87 MG glioma xenograft, tumour and blood; intravenous, 1 h; relative to: tumour over blood).
For `N=C(N)NCCC[C@@H]1NC(=O)[C@H](CCCCNC(=O)CCOCCOCCOCCOCCOCCOCCOCCOCCOCCOCCOCCOCCNC(=O)CCSC2CC(=O)N(CCC(=O)NCCCC[C@H](NC(=O)CCC(C(=O)O)N3CCN(C(CCC(=O)N[C@@H](CCCCNC(=O)CCN4C(=O)CC(SCCC(=O)NCCOCCOCCOCCOCCOCCOCCOCCOCCOCCOCCOCCOCCC(=O)NCCCC[C@@H]5NC(=O)[C@@H](Cc6ccc(O)cc6)NC(=O)[C@H](CC(=O)O)NC(=O)CNC(=O)[C@H](CCCNC(=N)N)NC5=O)C4=O)C(=O)N(CCCNC(=O)CN4CCN(CC(=O)O)CCN(CC(=O)O)CCN(CC(=O)O)CC4)CCCNC(=O)CN4CCN(CC(=O)O)CCN(CC(=O)O)CCN(CC(=O)O)CC4)C(=O)O)CCN(C(CCC(=O)N[C@@H](CCCCNC(=O)CCN4C(=O)CC(SCCC(=O)NCCOCCOCCOCCOCCOCCOCCOCCOCCOCCOCCOCCOCCC(=O)NCCCC[C@@H]5NC(=O)[C@@H](Cc6ccc(O)cc6)NC(=O)[C@H](CC(=O)O)NC(=O)CNC(=O)[C@H](CCCNC(=N)N)NC5=O)C4=O)C(=O)N(CCCNC(=O)CN4CCN(CC(=O)O)CCN(CC(=O)O)CCN(CC(=O)O)CC4)CCCNC(=O)CN4CCN(CC(=O)O)CCN(CC(=O)O)CCN(CC(=O)O)CC4)C(=O)O)CC3)C(=O)N(CCCNC(=O)CN3CCN(CC(=O)O)CCN(CC(=O)O)CCN(CC(=O)O)CC3)CCCNC(=O)CN3CCN(CC(=O)O)CCN(CC(=O)O)CCN(CC(=O)O)CC3)C2=O)NC(=O)[C@@H](Cc2ccc(O)cc2)NC(=O)[C@H](CC(=O)O)NC(=O)CNC1=O` (some centres unmarked) [gallium-68 labelled], “tumour uptake reduction” read about 3 (SCID mice, U-87 MG xenograft tumour; 6.0 mg, unit not given; relative to: 0.1 mg over 6.0 mg dose).
With `CCCC[C@H](NC(=O)CCCCCCCNC(=O)c1ccc(NN)nc1)C(=O)N[C@H]1CC(=O)NCCCC[C@@H](C(N)=O)NC(=O)[C@H](Cc2c[nH]c3ccccc23)NC(=O)[C@H](CCCNC(=N)N)NC(=O)[C@@H](Cc2ccccc2)NC(=O)[C@H](Cc2c[nH]cn2)NC1=O` [technetium-99m labelled] the tumour retention was 97.2% (B16/F1 melanoma-bearing C57 mice, tumour; 4 h post-injection; relative to: uptake at 2 h).
`CCCC[C@H](NC(=O)[C@H](Cc1cccs1)NC(=O)[C@H](Cc1c[nH]cn1)NC(=O)CCNC(=O)[C@@H](NC(=O)[C@H](C)NC(=O)[C@H](Cc1c[nH]c2ccccc12)NC(=O)[C@H](CCC(N)=O)NC(=O)[C@H](Cc1cccs1)NC(=O)CN1CCC(NC(=O)CN(CCN(CCN(CC(=O)O)CC(=O)O)CC(=O)O)CC(=O)O)CC1)C(C)C)C(N)=O` [indium-111 labelled] — result for “tumour to pancreas ratio increase”: 2.7 fold (Swiss nu/nu mice, PC-3 xenograft; intravenous, 10 pmol, 1 h to 24 h post injection).
For `CC[C@@]1(OC(=O)CCC(=O)NCCCC[C@H](NC(=O)[C@H](Cc2ccccc2)NC(=O)[C@H](Cc2ccccc2)NC(=O)CCSC2=C(/C=C/C3=[N+](C)c4ccccc4C3(C)C)CCC/C2=C\C=C2\N(C)c3ccccc3C2(C)C)C(=O)N[C@@H](CCCCNC(=O)CCCC[C@@H]2SC[C@@H]3NC(=O)N[C@@H]32)C(=O)O)C(=O)OCc2c1cc1n(c2=O)Cc2cc3ccccc3nc2-1`, “tumour to normal tissue ratio” read 11.1 (fluorescence imaging; BALB/c nude mice with 4T1 tumour; intravenous, 0.05 µmol/kg, 24 h post injection; relative to: tumour over healthy tissue).
`N=C(N)NCCC[C@@H]1NC(=O)[C@H](CCCCNC(=O)CNC(=O)CNC(=O)CNC(=O)CC[C@H](NC(=O)CCOCCOCCOCCOCCNC(=O)CC[C@H](NC(=O)CN2CCN(CC(=O)O)CCN(CC(=O)O)CCN(CC(=O)O)CC2)C(=O)NCCOCCOCCOCCOCCC(=O)N[C@@H](CCC(=O)NCC(=O)NCC(=O)NCC(=O)NCCCC[C@@H]2NC(=O)[C@@H](Cc3ccccc3)NC(=O)[C@H](CC(=O)O)NC(=O)CNC(=O)[C@H](CCCNC(=N)N)NC2=O)C(=O)NCC(=O)NCC(=O)NCC(=O)NCCCC[C@@H]2NC(=O)[C@@H](Cc3ccccc3)NC(=O)[C@H](CC(=O)O)NC(=O)CNC(=O)[C@H](CCCNC(=N)N)NC2=O)C(=O)NCC(=O)NCC(=O)NCC(=O)NCCCC[C@@H]2NC(=O)[C@@H](Cc3ccccc3)NC(=O)[C@H](CC(=O)O)NC(=O)CNC(=O)[C@H](CCCNC(=N)N)NC2=O)NC(=O)[C@@H](Cc2ccccc2)NC(=O)[C@H](CC(=O)O)NC(=O)CNC1=O` [indium-111 labelled] — result for “tumour to tissue ratio”: 3.14 ± 0.84 (athymic nude mice, female, U-87 MG glioma xenograft, tumour and kidney; intravenous, 72 h; relative to: tumour over kidney).
With `N=C(N)NCCC[C@@H]1NC(=O)[C@H](CCCCNC(=O)CNC(=O)CNC(=O)CNC(=O)CC[C@H](NC(=O)c2ccc(NN=Cc3ccccc3S(=O)(=O)O)nc2)C(=O)NCC(=O)NCC(=O)NCC(=O)NCCCC[C@@H]2NC(=O)[C@@H](Cc3ccccc3)NC(=O)[C@H](CC(=O)O)NC(=O)CNC(=O)[C@H](CCCNC(=N)N)NC2=O)NC(=O)[C@@H](Cc2ccccc2)NC(=O)[C@H](CC(=O)O)NC(=O)CNC1=O` [technetium-99m labelled] the tumour uptake was under 2 %ID/g (female athymic nu/nu mice, U-87 MG glioma, tumour; intravenous, dose not given, 120 min, tumour weight below 0.05 g).
For `CC[C@H]1c2cc3[nH]c4c(c3C)C(=O)[C@H](C(=O)OC)c4c3nc(cc4[nH]c(cc(n2)[C@@H]1C)c(C(C)=O)c4C)[C@@H](C)[C@@H]3CCC(=O)NCC(=O)N[C@H](CC(=O)O)C(=O)N[C@H](CCC(=O)O)C(=O)N[C@@H](C(=O)N[C@H](CC(=O)O)C(=O)NCC(=O)N[C@H](CO)C(=O)NCC(=O)N[C@H](CCCCN)C(N)=O)C(C)C`, “tumour fluorescence change” read “decreased” (nude mice, HT-1080 xenograft; intravenous, 25 nmol, 5 h to 24 h, low folate receptor tumour).
For `N=C(N)NCCC[C@@H]1NC(=O)[C@H](CCCCNC(=O)CCOCCOCCOCCOCCNC(=O)CN2CCN(CC(=O)O)CCN(CC(=O)O)CCN(CC(=O)O)CC2)NC(=O)[C@@H](Cc2ccccc2)NC(=O)[C@H](CC(=O)O)NC(=O)CNC1=O` [indium-111 labelled], “tumour to tissue ratio” read 50.6 ± 5.24 (athymic nude mice, female, U-87 MG glioma xenograft, tumour and brain; intravenous, 24 h; relative to: tumour over brain).
`CC(C)C[C@H](NC(=O)C[C@H](O)[C@H](CC(C)C)NC(=O)[C@H](Cc1c[nH]cn1)NC(=O)CNC(=O)[C@@H](NC(=O)[C@H](C)NC(=O)[C@H](Cc1c[nH]c2ccccc12)NC(=O)[C@H](CCC(N)=O)NC(=O)[C@@H](Cc1ccccc1)NC(=O)c1ccc(NC(=O)CNC(=O)CCC(C(=O)O)N2CCN(CC(=O)O)CCN(CC(=O)O)CC2)cc1)C(C)C)C(N)=O` (some centres unmarked) [fluorine-18 labelled] gave a tumour uptake of 1.8 ± 0.3 %ID/g (gamma counting; nude mice with PC-3 xenograft, tumour; 2 h post injection, together with: AMBA 10 mg/kg blocking).

Excerpt of the above:
For `N=C(N)NCCC[C@@H]1NC(=O)[C@H](CCCCNC(=O)CCOCCOCCOCCOCCNC(=O)CN2CCN(CC(=O)O)CCN(CC(=O)O)CCN(CC(=O)O)CC2)NC(=O)[C@@H](Cc2ccccc2)NC(=O)[C@H](CC(=O)O)NC(=O)CNC1=O` [indium-111 labelled], “tumour to tissue ratio” read 50.6 ± 5.24 (athymic nude mice, female, U-87 MG glioma xenograft, tumour and brain; intravenous, 24 h; relative to: tumour over brain).
